Published values gathered from unrelated publications.
Numbered parts are unrelated; each lists some results of a single study. Numbers after ± are the reported error.

Series 1 — observed: enzyme activity; action: inhibitor
Target: Replicase polyprotein 1ab, main protease (rep, Severe acute respiratory syndrome coronavirus 2, UniProt P0DTD1)
O=C1C(=Cc2cccnc2)C(=O)c2ccccc21 has an IC50 of > 20 µM.
For O=C1/C(=C/c2ccc([N+](=O)[O-])cc2)CS(=O)(=O)C/C1=C\c1ccc([N+](=O)[O-])cc1, the IC50 was 3.89 µM.
For O=C(NC(=S)N1CCCc2ccccc21)c1ccccc1, the IC50 was > 20 µM.

Series 2 — observed: enzyme activity; action: inhibitor; tested at: 20 µM
Target: Replicase polyprotein 1ab, polymerase (rep, Severe acute respiratory syndrome coronavirus 2, UniProt P0DTD1)
For CC[N+](C)(CC)CCOC(=O)C1c2ccccc2Oc2ccccc21, the inhibition was -6.23%.
The inhibition of CC(C)c1ccc(CC(=O)N2CCC[C@@H](c3cccc(OC(C)(C)C(=O)O)c3)C2)cc1 is reported as -0.24%.
For Clc1cccc(Cl)c1NC1=NCCN1, the inhibition was -10%.
With COc1cc(C(=O)NCc2ccc(OCCN(C)C)cc2)cc(OC)c1OC the inhibition was 27.7%.
The inhibition of Oc1cc(O)cc(O)c1 is reported as -0.99%.
With c1ccc([C@@H]2C[C@H]2NC2CCNCC2)cc1 the inhibition was -4.09%.
The inhibition of CSCC[C@H](NC(=O)[C@H](CC(C)C)NC(=O)CNC(=O)[C@H](Cc1ccccc1)NC(=O)[C@H](Cc1ccccc1)NC(=O)[C@H](CCC(N)=O)NC(=O)[C@H](CCC(N)=O)NC(=O)[C@@H]1CCCN1C(=O)[C@H](CCCCN)NC(=O)[C@@H]1CCCN1C(=O)[C@@H](N)CCCN=C(N)N)C(N)=O is reported as -1.21%.
With N[C@@H](Cc1c[nH]c2ccc(O)cc12)C(=O)O the inhibition was -5.5%.
With CN1CCC2=C(C1)c1ccccc1Cc1ccccc12 the inhibition was -2.65%.
O=C(O)c1ccccc1Nc1cc(Cl)ccc1C(=O)O has an inhibition of 3.99%.
For CNCCCN1c2ccccc2CCc2ccccc21, the inhibition was 15.4%.
With CSc1ccc(C(=O)c2[nH]c(=O)[nH]c2C)cc1 the inhibition was 1.64%.
CC(=O)NS(=O)(=O)c1ccc(NC(=O)c2ccccc2C(=O)O)cc1 gave an inhibition of -2.85%.
The inhibition of CCN1C(C)(C)CC(Oc2ccc(C(=O)Nc3ccc(NC(=O)Nc4cc(C(C)(C)C)on4)cc3)nc2)CC1(C)C is reported as 0.5%.
With Cc1ncc(C[n+]2csc(CCOP(=O)(O)OP(=O)(O)O)c2C)c(N)n1 the inhibition was 3.51%.
With O=c1[nH]c2ccccc2n1CCCN1CCN(C(c2ccccc2)c2ccccc2)CC1 the inhibition was 0.69%.
The inhibition of c1ccc2sc(N3CCN(Cc4ccc5c(c4)OCO5)CC3)nc2c1 is reported as 11.7%.
With CC[C@H](C)C(=O)O[C@H]1CCC=C2C=C[C@H](C)[C@H](CC[C@@H]3C[C@@H](O)CC(=O)O3)[C@H]21 the inhibition was 2.45%.
Cc1cc(Oc2ccc3nc(COc4ccc(CC5SC(=O)NC5=O)cc4)n(C)c3c2)cc(C)c1N (centres unmarked) gave an inhibition of 15.3%.
CCN(c1ccccc1)c1cc(=NC)n(C)c(C)n1 has an inhibition of -0.18%.
CC(C)OC(=O)[C@H](C)N[P@@](=O)(OC[C@H]1O[C@@H](n2ccc(=O)[nH]c2=O)[C@](C)(F)[C@@H]1O)Oc1ccccc1 has an inhibition of -5.94%.
CC(C)c1c(CN(C)C(C)Cc2ccccc2)n(C)n(-c2ccccc2)c1=O (centres unmarked) has an inhibition of -1.62%.
With Cc1c(C(=O)NN2CCOCC2)nn(-c2ccc(Cl)cc2Cl)c1-c1ccc(I)cc1 the inhibition was 23.7%.
The inhibition of Nc1ncc2c(n1)CC(c1ccco1)CC2=O (centres unmarked) is reported as -14.2%.
With CCCSc1ccc2[nH]c(NC(=O)OC)nc2c1 the inhibition was -3.58%.

Mixed results
rep main protease: Replicase polyprotein 1ab, main protease (rep, Severe acute respiratory syndrome coronavirus 2, UniProt P0DTD1)
Spike glycoprotein: Spike glycoprotein (Severe acute respiratory syndrome coronavirus 2, UniProt P0DTC2)
`insulin human` has a fold change of 0.991 (measured: ACHE mRNA; EcoHIV-infected mouse, brain; i.p., dose not given; relative to: PBS).
The CC50 of CCC(CC)COC(=O)[C@H](C)N[P@](=O)(OC[C@H]1O[C@@](C#N)(c2ccc3c(N)ncnn23)[C@H](O)[C@@H]1O)Oc1ccccc1 is reported as > 1 µM (A549-hACE2-TMPRSS2; 24 h).
For CN1CCCC(n2nc(Cc3ccc(Cl)cc3)c3ccccc3c2=O)CC1 (centres unmarked), the EC50 was > 100 µM (SARS-CoV-2; viral replication, high-content imaging screen; cell-based).
For C=C[C@]1(CO)O[C@@H](n2cnc3c(N)nc(N)nc32)C[C@@H]1O, the IC50 was 0.0079 µM (HIV-1 T215F; MTT; MT4).
O=c1cc(-c2ccc(O)c(O)c2)oc2cc(O)cc(O)c12 has a Hill slope of 1.03 ± 0.12 (Replicase polyprotein 1ab, nsp14 N7-methyltransferase (rep, Severe acute respiratory syndrome coronavirus 2, UniProt P0DTD1); N7-methyltransferase activity, inhibitor, Py-FLINT).
For CC[C@H](C)[C@H](NC(=O)[C@H](CC(C)C)NC(=O)[C@H](Cc1c[nH]c2ccccc12)NC(=O)[C@H](CCC(N)=O)NC(=O)[C@@H](NC(=O)[C@H](Cc1ccccc1)NC(=O)[C@H](C)NC(=O)[C@H](CCCCNC(=O)COCCOCCNC(=O)COCCOCCNC(=O)CC[C@H](NC(=O)CCCCCCCCCCCCCCCCCCC(=O)O)C(=O)O)NC(=O)[C@H](CCC(N)=O)NC(=O)[C@H](C)NC(=O)[C@@H](NC(=O)[C@H](CCCCN)NC(=O)[C@H](CC(=O)O)NC(=O)[C@H](CC(C)C)NC(=O)C(C)(C)NC(=O)[C@@H](NC(=O)[C@H](CO)NC(=O)[C@H](Cc1ccc(O)cc1)NC(=O)[C@H](CC(=O)O)NC(=O)[C@H](CO)NC(=O)[C@@H](NC(=O)[C@H](Cc1ccccc1)NC(=O)[C@@H](NC(=O)CNC(=O)[C@H](CCC(=O)O)NC(=O)C(C)(C)NC(=O)[C@@H](N)Cc1ccc(O)cc1)[C@@H](C)O)[C@@H](C)O)[C@@H](C)CC)[C@@H](C)CC)C(C)C)C(=O)N[C@@H](C)C(=O)NCC(=O)NCC(=O)N1CCC[C@H]1C(=O)N[C@@H](CO)C(=O)N[C@@H](CO)C(=O)NCC(=O)N[C@@H](C)C(=O)N1CCC[C@H]1C(=O)N1CCC[C@H]1C(=O)N1CCC[C@H]1C(=O)N[C@@H](CO)C(N)=O, the total ALT was 30.7 ± 24.1 U/L (patients with type 2 diabetes, serum; 5/5/10/10 mg escalating, baseline).
COc1ccc(-c2nnc(Nc3nc4c(OC)cccc4s3)o2)cc1 gave an IC50 of > 150 µM (Replicase polyprotein 1ab, nsp13 helicase (rep, Severe acute respiratory syndrome coronavirus 2, UniProt P0DTD1); helicase ATPase activity, inhibitor, Kinase-Glo luminescence).
With CNC(=O)[C@@H](NC(=O)[C@H](CC(C)C)[C@H](O)C(=O)NO)C(C)(C)C the viability difference was 5.99% (C2C12; 1 µM, added: KL venom; relative to: venom alone).
Cc1cn([C@H]2C[C@H](N=[N+]=[N-])[C@@H](CO)O2)c(=O)[nH]c1=O has an EC50 of 0.00143 ± 0.00093 µM (HIV-1; viral replication; human PBMC, subtype A 92RW020, CCR5-tropic clinical isolate).
CCOC(=O)[C@H]1O[C@@H]1C(=O)N[C@@H](CC(C)C)C(=O)NCCC(C)C has an EC50 of 85.1 µM (SARS-CoV-2; viral replication, high-content imaging screen; cell-based).
The EC90 of CC(C)/N=c1\cc2n(-c3ccc(Cl)cc3)c3ccccc3nc-2cc1Nc1ccc(Cl)cc1 is reported as 0.809 µM (SARS-CoV-2; viral replication, inhibitor; Vero E6, USA-WA1/2020; 24 h).
CCCCN(CCCC)CCCNC(=O)c1ccc2nc(N3CCCCC3)sc2c1 has an AC50 of 14.1 µM (SARS-CoV-2; cytopathic effect, cell-based CPE; USA_WA1/2020).
The GFP-positive cells of O=P1(NCCCl)OCCCN1CCCl (centres unmarked) is reported as 119% (HEK-293T; pseudovirus infection, FDA-approved drug library screen; VSV pseudotyped with SARS-CoV-2 spike; 10 µM, 16 h; relative to: vehicle-treated).
For Cc1cccc(/C=N/Nc2cc(N3CCOCC3)nc(OCCc3ccccn3)n2)c1, the EC50 was 0.012 µM (SARS-CoV-2; viral replication; 293T-ACE2, USA-WA1/2020; 24 h).
With CC(=O)c1ccc(O)c(O)c1 the inhibition was -0.782% (rep main protease; reporter gene (Gaussia luciferase), inhibitor; 20 µM).
The Kd of CN(C)c1ccc(N(Cc2cc(Cl)cs2)C(=O)Cc2cncc3ccccc23)cc1 is reported as 0.24 µM (rep main protease; binding, MST).
The inhibition of C[C@H](NC(=O)C(=O)Nc1ccccc1C(C)(C)C)C(=O)N[C@@H](CC(=O)O)C(=O)COc1c(F)c(F)cc(F)c1F is reported as 0.881% (rep main protease; reporter gene (mKate2), inhibitor; 20 µM).
The responding donors of `EELKKLLEQWNLVIG` is reported as 13% (human CD4 T cells; AIM; peptide).
With CC(C)(O)[C@H]1CC[C@@](C)([C@H]2[C@@H](O)C[C@@]3(C)[C@@H]4C[C@H](O[C@@H]5O[C@H](CO)[C@@H](O)[C@H](O)[C@H]5O)[C@H]5C(C)(C)[C@@H](O[C@@H]6OC[C@@H](O)[C@H](O)[C@H]6O)CC[C@@]56C[C@@]46CC[C@]23C)O1 the Kd was 111 µM (Spike glycoprotein; binding, biolayer interferometry).
CCc1c(C(=O)C(N)=O)c2c(OCC(=O)O)cccc2n1Cc1ccccc1 gave a viability difference of 20.8% (C2C12; 10 µM, added: KA venom; relative to: venom alone).
For `SLLIVNNATNVVIKV`, the responding donors was 9% (human CD4 T cells; AIM; peptide).
For O=C(/C=C/c1ccc(O)c(O)c1/C=C/c1ccc(O)c(O)c1)O[C@H](Cc1ccc(O)c(O)c1)C(=O)O, the Kd was 27.1 µM (Spike glycoprotein; binding).
